# Experimental data collected from several papers.
# Compare with care: the assays were run in different laboratories. Values joined by “and” are separate records of one study, mostly repeats; a detail may differ. Numbers after ± are the reported error.
SMILES,target or system,assay,test system,conditions,scale,endpoint,result
O=C1NC2(CC2)COc2ncc(F)cc2[C@H]2COCCN2c2ccn3ncc1c3n2,,,"Sprague-Dawley rat, female, adrenals","oral, 20 mg/kg/day, 4 weeks, end of treatment",,organ-to-body weight ratio,0.024 ± 0.004%
[Ga+3].[O-]c1ccc(Br)c2cccnc12.[O-]c1ccc(Br)c2cccnc12.[O-]c1ccc(Br)c2cccnc12,,,oil/water,pH 5.4,,partition coefficient,28.5
CC(C)[C@H](NC(=O)[C@@H](NC(=O)[C@H](CCCNC(=N)N)NC(=O)[C@H](CCCNC(=N)N)NC(=O)[C@H](CCCNC(=N)N)NC(=O)[C@H](CCC(N)=O)NC(=O)[C@H](CCCNC(=N)N)NC(=O)[C@H](CCCNC(=N)N)NC(=O)[C@H](CCCCN)NC(=O)[C@H](CCCCN)NC(=O)[C@H](CCCNC(=N)N)NC(=O)CN)[C@@H](C)O)C(=O)N[C@H](C(=O)N[C@@H](CO)C(=O)N1CCC[C@H]1C(=O)O)[C@@H](C)O,,,"ICR mice, male, heart","intranasal, 5 mg/kg daily, 4 weeks",,organ weight,0.232 ± 0.037 g
C=C/C=C/C[C@@H](C)[C@@H](O)[C@H]1C(=O)N[C@@H](CC)C(=O)N(C)CC(=O)N(C)[C@@H](CC(C)C)C(=O)N[C@@H](C(C)C)C(=O)N(C)[C@@H](CC(C)C)C(=O)N[C@@H](C)C(=O)N[C@H](C)C(=O)N(C)[C@@H](CC(C)C)C(=O)N(C)[C@@H](CC(C)C)C(=O)N(C)[C@@H](C(C)C)C(=O)N1C,,,"Wistar Kyoto rat, male, plasma","ip, 0.5 mg/kg/day, day 18",,plasma Mg2+,0.8 ± 0.04 mmol/L
CC[C@H](C)[C@H](NC(=O)CNC(=O)[C@H](CC(C)C)NC(=O)[C@H](Cc1ccccc1)NC(=O)CN)C(=O)N[C@@H](CC(C)C)C(=O)N[C@@H](Cc1ccccc1)C(=O)N[C@@H](Cc1c[nH]cn1)C(=O)NCC(=O)N[C@H](C(=O)N[C@@H](Cc1c[nH]cn1)C(=O)N[C@@H](Cc1c[nH]cn1)C(=O)NCC(=O)N[C@@H](CCCNC(=N)N)C(=O)N[C@@H](CCCCN)C(=O)N[C@@H](CCCCN)C(=O)N[C@@H](C)C(=O)N[C@@H](CC(C)C)C(=O)N[C@@H](Cc1c[nH]cn1)C(=O)N[C@@H](CCSC)C(=O)N[C@@H](CC(N)=O)C(=O)N[C@@H](CO)C(=O)N[C@@H](CCC(=O)O)C(=O)N[C@@H](CCCNC(=N)N)C(=O)N[C@@H](CCCNC(=N)N)C(=O)N[C@@H](CO)C(=O)O)C(C)C,,,"zebrafish embryos 28 hpf, E3 medium",1 h,,acute toxic concentration,25 µM
CC(C)[C@@H]1NC(=O)CNC(=O)[C@H](CC(N)=O)NC(=O)[C@H](CCCNC(=N)N)NC(=O)[C@H](Cc2ccc(O)cc2)NC(=O)[C@H](C(C)C)NC(=O)[C@@H](NC(=O)[C@@H](NC(=O)[C@H](CC(N)=O)NC(=O)[C@H](Cc2c[nH]c3ccccc23)NC(=O)[C@H](C)NC(=O)[C@H](Cc2ccccc2)NC(=O)CNC(=O)[C@H](CCCCN)NC(=O)[C@H](Cc2ccccc2)NC(=O)[C@H](Cc2ccccc2)NC(=O)[C@H](CCCCN)NC(=O)OCC2c3ccccc3-c3ccccc32)C(C)C)CSSC[C@@H](C(=O)N[C@@H](Cc2c[nH]cn2)C(=O)N[C@@H](CCCNC(=N)N)C(=O)N[C@@H](CCCNC(=N)N)C(=O)N[C@@H](C)C(=O)N[C@@H](CC(N)=O)C(N)=O)NC(=O)[C@H](C(C)C)NC(=O)[C@H](CCCNC(=N)N)NC1=O,,,"ICR mice, blood","intraperitoneal, 10 mg/kg, day 5",,lymphocytes,72.9 ± 2.4%
Cc1ccc(OCC2CN(C)C2)cc1C(=O)N[C@H](C)c1cc(-c2cnn(C)c2)nc2ccccc12,Vero E6,,,125 µM,,viability,4.46% and 6.96% and 3.21%
CCCCCCCCCCCCCCCC(=O)N[C@@H](CCC(=O)NCCOCCOCCC(=O)NCCOCCOCCC(=O)NCCCC[C@H](NC(=O)[C@H](CC(=O)O)NC(=O)[C@H](CC(C)C)NC(=O)[C@H](Cc1ccc(O)cc1)NC(=O)[C@H](CCCCN)NC(=O)[C@H](CO)NC(=O)[C@H](Cc1ccc(O)cc1)NC(=O)[C@H](CC(=O)O)NC(=O)[C@H](CO)NC(=O)[C@@H](NC(=O)[C@H](Cc1ccccc1)NC(=O)[C@@H](NC(=O)CNC(=O)[C@H](CCC(N)=O)NC(=O)[C@@H](CO)NC(=O)[C@@H](N)Cc1c[nH]cn1)[C@@H](C)O)[C@@H](C)O)C(=O)N[C@@H](CCCNC(=N)N)C(=O)N[C@@H](CCCNC(=N)N)C(=O)N[C@@H](C)C(=O)N[C@@H](CCC(N)=O)C(=O)N[C@@H](CC(=O)O)C(=O)N[C@@H](Cc1ccccc1)C(=O)N[C@H](C(=O)N[C@@H](CCC(N)=O)C(=O)N[C@@H](Cc1c[nH]c2ccccc12)C(=O)N[C@@H](CC(C)C)C(=O)N[C@@H](CC(C)C)C(=O)N[C@@H](CC(N)=O)C(=O)N[C@H](C(=O)NCC(=O)NCC(=O)N1CCC[C@H]1C(=O)N[C@@H](CO)C(=O)N[C@@H](CO)C(=O)NCC(=O)N[C@@H](C)C(=O)N1CCC[C@H]1C(=O)N1CCC[C@H]1C(=O)N1CCC[C@H]1C(=O)N[C@@H](CO)C(N)=O)[C@@H](C)O)C(C)C)C(=O)O,,,"rhesus monkey, male","subcutaneous, 60 µg/kg once daily, 28 days",,urea,6.56 ± 2.44 mmol/L
CCN(CCCCOc1ccc(CCC(=O)N2CCC(Cc3ccccc3)CC2)cc1OC)Cc1ccccc1,,,"Sprague-Dawley rats, both sexes, urine","oral gavage, 25 mg/kg, 6 to 12 h",,excreted amount,961 ± 159 ng
CN1Cc2cc(Cl)ccc2-n2c(nnc2C2CCN(c3cccc([18F])n3)CC2)C1,,PET two-tissue compartment model,"rhesus monkey, occipital cortex","intravenous, dose not given, 70 min scan, baseline scan",,total volume of distribution,0.93 ± 0.35 mL/cm3
Cc1ccccc1-c1ccc(-c2nc(-c3ccc(CN(C)CCCC(=O)O)c([18F])c3)no2)cc1C(F)(F)F,,,"rat, spleen",2 h,,tracer uptake,0.36 %ID/g
N=C(N)NCCC[C@@H](NC(=O)[C@H](N)Cc1c[nH]c2ccccc12)C(=O)N[C@H](CCCCN)C(=O)N[C@H](Cc1c[nH]c2ccccc12)C(=O)N[C@H](CCCNC(=N)N)C(=O)N[C@H](CCCCN)C(=O)N[C@H](Cc1c[nH]c2ccccc12)C(=O)N[C@H](CCCNC(=N)N)C(=O)N[C@H](CCCCN)C(=O)N[C@H](Cc1c[nH]c2ccccc12)C(=O)N[C@H](CCCNC(=N)N)C(=O)N[C@H](CCCCN)C(N)=O,,,"mouse, urine",30 mg/kg,,NGAL level,32.7 ng/mL
CC(C)C[C@@H](NC(=O)[C@@H](CCCNC(=N)N)NC(=O)[C@@H](Cc1c[nH]cn1)NC(=O)[C@@H](Cc1c[nH]c2ccccc12)NC(=O)[C@@H](Cc1c[nH]cn1)NC(=O)[C@@H](Cc1ccccc1)NC(=O)[C@H](NC(=O)[C@@H](Cc1ccc(O)cc1)NC(=O)CNC(=O)CNC(=O)CCOCCOCCOCCNC(=O)CN1CCN(CC(=O)O)CCN(CC(=O)O)CC1)[C@H](C)O)C(=O)N[C@H](CC(N)=O)C(=O)N1CCC[C@@H]1C(=O)O [gallium-68 labelled],,,"C57BL/6 mice, male","intravenous, 1.85 MBq, 30 min",relative to: tumour over liver,tissue ratio,1.62 ± 0.42
O=C(c1cc(Cc2n[nH]c(=O)c3ccccc23)ccc1F)N1CC(CNC2CC2)C1,,,female Wistar Han rat,"oral, 30 mg/kg, day 28",,Cmax,2720 ng/mL
CC[C@H](C)[C@@H]1NC(=O)[C@H](Cc2ccc(O)cc2)NC(=O)CCCSC[C@@H](C(=O)N(CC(=O)N[C@@H](CC(C)C)C(=O)NCC(N)=O)Cc2ccc(F)cc2)NC(=O)[C@H](CC(N)=O)NC(=O)[C@H](CCC(N)=O)NC1=O,,,human,"intranasal, 200 µg single dose",,deaths,0%
CC[C@H](C)[C@H](NC(=O)[C@H](CCCCN)NC(=O)CNC(=O)[C@H](CC(C)C)NC(=O)[C@H](Cc1ccccc1)NC(=O)[C@H](CCCCN)NC(=O)[C@H](CO)NC(=O)[C@H](Cc1ccccc1)NC(=O)[C@H](Cc1c[nH]c2ccccc12)NC(=O)[C@H](CCC(N)=O)NC(=O)[C@@H](NC(=O)[C@H](Cc1ccccc1)NC(=O)CCCCCNC(=O)CN1CCN(CC(=O)O)CCN(CC(=O)O)CCN(CC(=O)O)CC1)C(C)C)C(=O)N[C@@H](CCC(=O)O)C(=O)N1CCC[C@H]1C(=O)N[C@@H](CC(=O)O)C(=O)N[C@H](C(=O)N[C@@H](CO)C(=O)N[C@@H](CCC(N)=O)C(=O)N[C@H](C(=O)N[C@@H](CCC(N)=O)C(=O)N[C@@H](CC(=O)O)C(=O)N1CCC[C@H]1C(=O)N[C@@H](CC(N)=O)C(=O)N[C@@H](CC(=O)O)C(=O)N[C@@H](CCC(N)=O)C(=O)N[C@@H](Cc1ccc(O)cc1)C(=O)N[C@@H](CCC(=O)O)C(=O)N1CCC[C@H]1C(=O)N[C@@H](Cc1ccccc1)C(=O)O)C(C)C)C(C)C [copper-64 labelled],,dynamic PET,"mouse, CT26 tumour, untreated, tumour","intravenous, 100 µCi/mouse, 1860 s",,SUVmean,0.84 SUV
Cc1ccc(OCCN(C)C)cc1C(=O)N[C@H](C)c1cc(-c2ccc(C#N)nc2)nc2ccccc12,Vero E6,,,125 µM,,viability,-0.6% and 0.2%

# Some of these lines once more:
SMILES,target or system,assay,test system,conditions,scale,endpoint,result
O=C1NC2(CC2)COc2ncc(F)cc2[C@H]2COCCN2c2ccn3ncc1c3n2,,,"Sprague-Dawley rat, female, adrenals","oral, 20 mg/kg/day, 4 weeks, end of treatment",,organ-to-body weight ratio,0.024 ± 0.004%
CC[C@H](C)[C@H](NC(=O)CNC(=O)[C@H](CC(C)C)NC(=O)[C@H](Cc1ccccc1)NC(=O)CN)C(=O)N[C@@H](CC(C)C)C(=O)N[C@@H](Cc1ccccc1)C(=O)N[C@@H](Cc1c[nH]cn1)C(=O)NCC(=O)N[C@H](C(=O)N[C@@H](Cc1c[nH]cn1)C(=O)N[C@@H](Cc1c[nH]cn1)C(=O)NCC(=O)N[C@@H](CCCNC(=N)N)C(=O)N[C@@H](CCCCN)C(=O)N[C@@H](CCCCN)C(=O)N[C@@H](C)C(=O)N[C@@H](CC(C)C)C(=O)N[C@@H](Cc1c[nH]cn1)C(=O)N[C@@H](CCSC)C(=O)N[C@@H](CC(N)=O)C(=O)N[C@@H](CO)C(=O)N[C@@H](CCC(=O)O)C(=O)N[C@@H](CCCNC(=N)N)C(=O)N[C@@H](CCCNC(=N)N)C(=O)N[C@@H](CO)C(=O)O)C(C)C,,,"zebrafish embryos 28 hpf, E3 medium",1 h,,acute toxic concentration,25 µM
CN1Cc2cc(Cl)ccc2-n2c(nnc2C2CCN(c3cccc([18F])n3)CC2)C1,,PET two-tissue compartment model,"rhesus monkey, occipital cortex","intravenous, dose not given, 70 min scan, baseline scan",,total volume of distribution,0.93 ± 0.35 mL/cm3
